Published values collected from several papers.
Lines come from different studies, so protocols differ. Numbers after ± are the reported error.

| SMILES | assay | test system | setting | Vz/F |
| --- | --- | --- | --- | --- |
| CC[C@H](C)[C@@H]1NC(=O)[C@H](CCCNC(=N)N)NC(=O)[C@H](CC(=O)O)NC(=O)[C@H](CC(C)C)NC(=O)[C@H](CCCCN)NC(=O)[C@H](CC(C)C)NC(=O)CNC(=O)[C@H](Cc2ccccc2)NC(=O)[C@@H](NC(=O)CNC(=O)[C@H](CCCCN)NC(=O)[C@H](CO)NC(=O)[C@H](CC(C)C)NC(=O)CNC(=O)[C@H](CCCCN)NC(=O)[C@H](CCCCN)NC(=O)[C@H](CC(N)=O)NC(=O)[C@H](C)NC(=O)CNC(=O)[C@H](CCCCN)NC(=O)[C@H](Cc2ccc(O)cc2)NC(=O)[C@H](CCCCN)NC(=O)[C@H](CCCNC(=N)N)NC(=O)[C@H](C)NC(=O)[C@H](CC(N)=O)NC(=O)[C@@H]2CCCN2C(=O)[C@H](Cc2c[nH]cn2)NC(=O)[C@H](CCC(=O)O)NC(=O)[C@H](CCC(N)=O)NC(=O)CNC(=O)[C@@H]2CCCN2)CSSC[C@@H](C(=O)O)NC(=O)CNC(=O)[C@H](CC(C)C)NC(=O)CNC(=O)[C@H](CO)NC(=O)[C@H](CCSC)NC(=O)[C@H](CO)NC(=O)CNC1=O | ECLA | human, plasma | subcutaneous, 15 µg/kg once daily, week 26 | 3.02 L/kg |
| CCCS(=O)(=O)N[C@H]1C[C@@H](N(C)c2ncnc3[nH]ccc23)C1 |  | human, moderate hepatic impairment | oral, 200 mg, single dose, geometric mean | 224 L |
| CCOc1ccc(Cc2cc([C@]34OC[C@](CO)(O3)[C@@H](O)[C@H](O)[C@H]4O)ccc2Cl)cc1 |  | human, type 2 diabetes, severe renal impairment, plasma | oral, 15 mg | 269 L |
| C=CC(=O)N1CCC(CNc2ncnc(N)c2-c2ccc(Oc3ccccc3)cc2)CC1 |  | human, plasma | oral, 50 mg single dose, geometric mean | 455 L |
| CC(C)NC[C@@H](C(=O)N1CCN(c2ncnc3c2[C@H](C)C[C@H]3O)CC1)c1ccc(Cl)cc1 |  | human, Severe hepatic function (Child-Pugh), plasma | oral, 100 mg single dose, geometric mean | 10600 L |
| O=C(c1cccnc1-c1ccncc1)N1CCC(O)(Cc2ccccc2)CC1 |  | healthy human, plasma | oral, 100 mg once daily, day 1, arithmetic mean | 1320 L |
| Cc1ccsc1C(=O)Nc1cc(CN2CCN(C(=O)CO)CC2)ccc1/C=C/c1n[nH]c2ccccc12 |  | human patients, plasma | oral, 50 mg/day, day 28 | 29.6 ± 1.69 L |
| COc1cc2nccc(Oc3ccc(NC(=O)NC4CC4)c(Cl)c3)c2cc1C(N)=O |  | human, plasma | oral, 5 mg, arithmetic mean, with: placebo | 347 L |
| CCOc1c([C@H](C)n2nc(C)c3c(N)ncnc32)cc(Cl)c(F)c1[C@@H]1CNC(=O)C1 |  | healthy fasted humans, plasma | oral, 10 mg | 54.7 ± 13.9 L |
| COc1cc(C(=O)NC2CCN(C)CC2)c(F)cc1Nc1ncc(C(F)(F)F)c(Oc2cccc3c2C(=O)N(C)C3)n1 |  | human patients, plasma | oral, 200 mg once daily, steady state | 311 L |
| CNC(=O)c1c(C)oc2cc(Oc3ncnc4cc(OC)c(OC)cc34)ccc12 |  | human, plasma | oral, 5 mg, fed, high-fat meal | 43.5 L |

A few entries again:
| SMILES | assay | test system | setting | Vz/F |
| --- | --- | --- | --- | --- |
| CNC(=O)c1c(C)oc2cc(Oc3ncnc4cc(OC)c(OC)cc34)ccc12 |  | human, plasma | oral, 5 mg, fed, high-fat meal | 43.5 L |
